Results from different studies.
Every numbered part comes from another study and shows a few of its results, in no order.

Block 1
Target: Sal-like protein 4, full length isoform B (SALL4, Homo sapiens, UniProt Q9UJQ4-2, residues 1-616)
Technique: universal PBM
Molecule type: double-stranded DNA, one strand shown
Medium: in vitro
Concentration: not given
Setting: 8-mer, flanks averaged, mean of replicates
Direction: higher = stronger binding
Residues (chain): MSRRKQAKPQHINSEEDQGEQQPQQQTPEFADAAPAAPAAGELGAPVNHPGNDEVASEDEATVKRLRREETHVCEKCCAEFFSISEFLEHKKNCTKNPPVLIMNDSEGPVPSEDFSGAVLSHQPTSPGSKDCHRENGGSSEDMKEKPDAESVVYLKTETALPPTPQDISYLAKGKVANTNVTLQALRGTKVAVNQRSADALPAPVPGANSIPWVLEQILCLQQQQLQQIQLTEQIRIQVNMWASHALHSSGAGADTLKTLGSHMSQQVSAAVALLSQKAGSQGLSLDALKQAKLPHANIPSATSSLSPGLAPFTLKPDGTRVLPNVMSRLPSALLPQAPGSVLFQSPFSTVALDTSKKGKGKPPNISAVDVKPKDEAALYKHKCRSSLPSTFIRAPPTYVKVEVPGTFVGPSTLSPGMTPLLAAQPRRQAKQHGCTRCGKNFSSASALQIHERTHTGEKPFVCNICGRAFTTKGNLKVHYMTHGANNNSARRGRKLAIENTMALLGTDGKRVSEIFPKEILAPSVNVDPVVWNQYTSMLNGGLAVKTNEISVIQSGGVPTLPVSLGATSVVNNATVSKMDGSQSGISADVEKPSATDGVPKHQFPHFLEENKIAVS
`GCAAATGA` has an E-score of 0.0664.
`CCTACATC` has an E-score of 0.00457.
The E-score of `TATGCCAA` is reported as 0.18.
`AAACCCAA` gave an E-score of 0.166.
With `ACAGTCTA` the E-score was 0.0483.
The E-score of `GATCTTAA` is reported as 0.0651.
`CGTCAACA` gave an E-score of -0.128.
For `TTCCGGAA`, the E-score was -0.205.

Block 2
Target: Replicase polyprotein 1ab, nsp13 helicase (rep, Severe acute respiratory syndrome coronavirus 2, UniProt P0DTD1)
Action: inhibitor
Concentration: 20 µM
For `CCCN(CCc1cccs1)[C@H]1CCc2c(O)cccc2C1`, the inhibition was 5.69%.
With `Cc1ncc(CSSCc2cnc(C)c(O)c2CO)c(CO)c1O` the inhibition was 1.6%.
`OCc1ccc(CO)o1` has an inhibition of 1.99%.
With `O=C(c1ccc(F)cc1)C1CCN(CCn2c(=S)[nH]c3ccccc3c2=O)CC1` the inhibition was 3.92%.
The inhibition of `O=C(c1ccc(Nc2nccc(-c3cc4ccccc4s3)n2)cc1)N1CCC(N2CCCC2)CC1` is reported as 71.5%.
The inhibition of `CCOC(=O)[C@@H](N)Cc1ccc(-c2cc(O[C@H](c3ccc(Cl)cc3-n3ccc(C)n3)C(F)(F)F)nc(N)n2)cc1` is reported as 4.9%.
With `CN(C(=O)C(Cl)Cl)c1ccc(OC(=O)c2ccco2)cc1` the inhibition was 1.99%.
The inhibition of `O=C(O)Cc1ccc(CCNS(=O)(=O)c2ccc(Cl)cc2)cc1` is reported as 6.6%.
For `Cc1ccccc1OCC(O)CNCCOc1ccc(C(N)=O)cc1` (stereo not drawn), the inhibition was 0.07%.
`c1ccc(-c2ncc(CN3CCN(c4ncccn4)CC3)[nH]2)cc1` has an inhibition of 8.82%.
With `CN1CCN2c3ncccc3Cc3ccccc3C2C1` (stereo not drawn) the inhibition was 0.67%.
With `Oc1c(Cl)cc(Cl)cc1Sc1cc(Cl)cc(Cl)c1O` the inhibition was 5.61%.
With `C=C1/C(=C\C=C2/CCC[C@]3(C)[C@@H]([C@H](C)CCCC(O)(C(F)(F)F)C(F)(F)F)CC[C@@H]23)C[C@@H](O)C[C@@H]1O` the inhibition was 5.79%.
`O=C(Nc1ccccc1)c1cc([N+](=O)[O-])ccc1Cl` gave an inhibition of -2.4%.
`CC(=O)Oc1ccccc1C(=O)Nc1ccccc1` gave an inhibition of 10.8%.
`C#C[C@]1(OC(C)=O)CC[C@H]2[C@@H]3CCC4=C[C@@H](OC(C)=O)CC[C@@H]4[C@H]3CC[C@@]21C` has an inhibition of 0.24%.
With `Cc1cc(Cl)ccc1OCCCC(=O)NO` the inhibition was -2.54%.
`Cc1cc(C(=O)O)sc1C(N)C(=O)O` (stereo not drawn) gave an inhibition of 8.52%.
`FC(F)c1nc2ccccc2n1-c1nc(N2CCOCC2)nc(N2CCOCC2)n1` gave an inhibition of 7.82%.
`CN[C@@H](C)C(=O)N[C@H](C(=O)N1CCC[C@H]1C(=O)N[C@H]1c2ccccc2C[C@H]1OCC#CC#CCO[C@@H]1Cc2ccccc2[C@@H]1NC(=O)[C@@H]1CCCN1C(=O)[C@@H](NC(=O)[C@H](C)NC)C1CCCCC1)C1CCCCC1` gave an inhibition of 12.9%.
`c1ccc2c(c1)[I+]c1ccccc1-2` gave an inhibition of 2.64%.
With `C[C@]12CC[C@H](O)CC1=CC[C@@H]1[C@@H]2CC[C@]2(C)C(=O)CC[C@@H]12` the inhibition was 5.42%.
`CC(C)(C)c1ccc(C(O)CCCN2CCC(C(O)(c3ccccc3)c3ccccc3)CC2)cc1` (stereo not drawn) has an inhibition of 4.43%.
`OCCN1C[C@H](O)[C@@H](O)[C@H](O)[C@H]1CO` gave an inhibition of 4.11%.
For `CCn1cc(C(=O)O)c(=O)c2ccc(-c3ccncc3)cc21`, the inhibition was 6.5%.

Block 3
Target: Protein C-ets-1 (ETS1, Homo sapiens, UniProt P14921, residues 1-441, Y397A, full length assumed)
Sequence of UniProt P14921 (whole entry, unmodified, looked up): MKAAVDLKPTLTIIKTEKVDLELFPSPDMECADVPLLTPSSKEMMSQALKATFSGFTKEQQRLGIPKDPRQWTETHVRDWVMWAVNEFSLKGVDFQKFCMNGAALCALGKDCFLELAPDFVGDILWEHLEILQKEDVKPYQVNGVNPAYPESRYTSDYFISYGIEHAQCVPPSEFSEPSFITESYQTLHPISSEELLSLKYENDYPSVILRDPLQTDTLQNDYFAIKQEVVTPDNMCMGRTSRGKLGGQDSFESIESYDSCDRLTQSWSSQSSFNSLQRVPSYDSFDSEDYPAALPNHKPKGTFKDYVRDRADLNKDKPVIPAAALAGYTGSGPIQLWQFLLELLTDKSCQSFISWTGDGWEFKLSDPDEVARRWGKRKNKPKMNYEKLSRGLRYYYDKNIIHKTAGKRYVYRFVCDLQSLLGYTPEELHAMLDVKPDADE
Technique: protein-binding microarray
Molecule type: double-stranded DNA, one strand shown
Medium: in vitro
Concentration: not given
Setting: k-mer, scored over probes, only values ≥0.25
Direction: higher = stronger binding
`GGCAGTCA` gave an E-score of 0.252.
The E-score of `CACACGAC` is reported as 0.266.
For `CGTCCGGA`, the E-score was 0.268.

Block 4
Target: PABPC1L2, full length, GST fusion (mouse, UniProt A0ABA7IW68)
Technique: RNAcompete
Molecule type: RNA
Medium: in vitro
Concentration: 20 nM
Setting: 7-mer, probes averaged, single round
Reference: mean of 7-mers
Direction: higher = stronger binding
Target sequence (chain): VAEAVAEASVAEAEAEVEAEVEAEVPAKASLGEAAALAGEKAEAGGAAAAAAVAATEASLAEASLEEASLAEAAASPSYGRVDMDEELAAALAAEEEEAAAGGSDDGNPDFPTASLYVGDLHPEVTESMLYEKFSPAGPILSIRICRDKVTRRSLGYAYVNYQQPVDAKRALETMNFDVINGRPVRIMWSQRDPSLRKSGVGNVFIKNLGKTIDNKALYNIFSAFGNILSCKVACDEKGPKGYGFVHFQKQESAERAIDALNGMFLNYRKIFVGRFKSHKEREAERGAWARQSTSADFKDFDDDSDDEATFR
`CUAGCGG` gave a 7-mer Z-score of -0.0518.
The 7-mer Z-score of `AUCGCCU` is reported as -0.42.
The 7-mer Z-score of `CCUUGCC` is reported as -0.42.
The 7-mer Z-score of `AGUCAAA` is reported as 0.445.

Block 5
Target: Interferon regulatory factor 7, full length, phosphomimetic (IRF7, Homo sapiens, UniProt Q92985, residues 1-503, S471D/S472D/S475D/S476D/S477D/S483D/S484D/S487D)
Sequence of UniProt Q92985 (whole entry, unmodified, looked up): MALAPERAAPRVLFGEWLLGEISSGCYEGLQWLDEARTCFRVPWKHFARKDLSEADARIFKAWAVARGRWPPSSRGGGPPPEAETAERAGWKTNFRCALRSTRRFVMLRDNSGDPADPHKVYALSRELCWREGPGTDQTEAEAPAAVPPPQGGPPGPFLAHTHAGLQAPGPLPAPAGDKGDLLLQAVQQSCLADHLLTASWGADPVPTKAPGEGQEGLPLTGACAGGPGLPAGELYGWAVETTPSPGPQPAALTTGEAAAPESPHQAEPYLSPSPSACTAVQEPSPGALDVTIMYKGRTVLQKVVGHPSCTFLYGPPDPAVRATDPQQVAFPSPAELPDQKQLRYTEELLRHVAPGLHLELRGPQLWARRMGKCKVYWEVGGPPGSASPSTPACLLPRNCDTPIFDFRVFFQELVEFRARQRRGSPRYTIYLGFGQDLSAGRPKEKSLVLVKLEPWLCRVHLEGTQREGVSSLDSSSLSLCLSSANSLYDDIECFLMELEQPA
Technique: protein-binding microarray
Molecule type: double-stranded DNA, one strand shown
Medium: in vitro
Concentration: 2200 nM top
Setting: 60-bp whole probe
Together with: salmon DNA 0.4 mg/ml
Reference: random background probes
Direction: higher = stronger binding
Shared flanks, not repeated: GCCTAGCAC … GTCTTGATTCGCTTGACGCTGCTG
For `ATATATATATATACAGATATGTGCTAG`, “fitted relative affinity” read 0.846 z-score.
`TTAGTACTGGGGTATCGATTAGTGCTA`: “fitted relative affinity” 0.228 z-score.
`GACTGTTTCGGACTGGGGACGTGCTAG` — result for “fitted relative affinity”: 2.5 z-score.
`TTAGGTATCGACTATCGGTGAGTGCTA` — result for “fitted relative affinity”: 0.0987 z-score.
`GACGGTTTCCTTTTCCTGATGTGCTAG` — result for “fitted relative affinity”: 5.51 z-score.
`GACGAACTGGGTTTCGAGACGTGCTAG` — result for “fitted relative affinity”: 1.53 z-score.
Under “fitted relative affinity”, `TCATGCTTCAGGTTTACCACTGTGCTA` is recorded as 0.913 z-score.
Under “fitted relative affinity”, `GAAGAACTGAGTTTCGAGACGTGCTAG` is recorded as 2.11 z-score.

Block 6
Cell line: HEK-293T
Organism: VSV pseudotyped with SARS-CoV-2 spike
Concentration: 10 µM
Time: 16 h
The pseudovirus infection of `Cc1ncc(C[n+]2csc(CCO)c2C)c(N)n1` is reported as 76.4%.
`Cn1cnc([N+](=O)[O-])c1Sc1ncnc2nc[nH]c12` has a pseudovirus infection of 105%.
With `C#CCN[C@@H]1CCc2ccccc21` the pseudovirus infection was 97%.
`NC(N)=Nc1nc(CSCCC(N)=NS(N)(=O)=O)cs1` has a pseudovirus infection of 76.9%.
`Nc1ccc(S(N)(=O)=O)cc1` has a pseudovirus infection of 96.4%.

Further values, each from its own experiment
`Sc1nnnn1-c1ccccc1` has an IC50 of > 20 µM (Replicase polyprotein 1ab, main protease (rep, Severe acute respiratory syndrome coronavirus 2, UniProt P0DTD1); enzyme activity, inhibitor, fluorescence).

Repeated from above (block 3):
`GGCAGTCA` gave an E-score of 0.252.
The E-score of `CACACGAC` is reported as 0.266.
For `CGTCCGGA`, the E-score was 0.268.
